# Results gathered from unrelated publications.
# Protocols differ between the studies behind these lines. Values joined by “and” are separate records of one study, mostly repeats; a detail may differ. ± marks the error that the study gave.
# Organism: Staphylococcus aureus
SMILES,test,test system,setting,how to read,measurement,value
CNC(C)C1CCC(N)C(OC2C(N)CC(N)C(OC3OCC(C)(O)C(NC)C3O)C2O)O1 (stereo not shown),,CGMCC 1.9,"concentration not given, 18 h, 37 °C",,inhibition zone diameter,18 mm
"Cl.Oc1cccc2c1[nH]c1c(C3=CC4(O)CC/C=C\CCCCN5CCC3C3(CC6/C=C\CCCCN6C43)C5)nccc12 (single isomer, unassigned; (+))",growth,"ATCC 43300, MRSA",,,IC50,0.61 ± 0.01 µg/mL
CN[C@H](CC(C)C)C(=O)N[C@H]1C(=O)N[C@@H](CC(N)=O)C(=O)N[C@H]2C(=O)N[C@H]3C(=O)N[C@H](C(=O)N[C@H](C(=O)O)c4cc(O)cc(O)c4-c4cc3ccc4O)[C@H](O)c3ccc(c(Cl)c3)Oc3cc2cc(c3O[C@@H]2O[C@H](CO)[C@@H](O)[C@H](O)[C@H]2O[C@H]2C[C@](C)(N)[C@H](O)[C@H](C)O2)Oc2ccc(cc2Cl)[C@H]1O,broth microdilution,daptomycin-non-susceptible clinical isolates,,,MIC range,4 to 8 µg/mL
CC1(C)OCC(C(=O)NCCc2ccccc2)O1 (stereo not shown),crystal violet staining,,"500 µg/mL, 24 h",baseline: untreated,residual biofilm,41 ± 13%
CC(C)c1ccc(/C=C2\N=C(SCC(=O)c3ccccc3)N(c3ccccc3)C2=O)cc1,,ATCC 6538,concentration not given,,inhibition zone diameter,11 ± 0.63 mm
CNC(C)C1CCC(N)C(OC2C(N)CC(N)C(OC3OCC(C)(O)C(NC)C3O)C2O)O1 (stereo not shown),,"clinical isolate S.A10, RPMI with FBS","24 h, 37 °C",,MIC,0.39 µM
Cn1nc(C2COC3(CCCCC3)O2)cc1-c1ccccc1 (stereo not shown),crystal violet staining,,"500 µg/mL, 24 h",baseline: untreated,residual biofilm,5 ± 1%
CN[C@H](CC(C)C)C(=O)N[C@H]1C(=O)N[C@@H](CC(N)=O)C(=O)N[C@H]2C(=O)N[C@H]3C(=O)N[C@H](C(=O)N[C@H](C(=O)O)c4cc(O)cc(O)c4-c4cc3ccc4O)[C@H](O)c3ccc(c(Cl)c3)Oc3cc2cc(c3O[C@@H]2O[C@H](CO)[C@@H](O)[C@H](O)[C@H]2O[C@H]2C[C@](C)(N)[C@H](O)[C@H](C)O2)Oc2ccc(cc2Cl)[C@H]1O,,"09057, female BALB/c mice, sepsis, kidney","intraperitoneal, 20 mg/kg",,log bacterial load,4.34 log(CFU/g) and 4.97 log(CFU/g) and 4.59 log(CFU/g) and 5.22 log(CFU/g) and 4.88 log(CFU/g) and 4.67 log(CFU/g)
CN[C@H](CC(C)C)C(=O)N[C@H]1C(=O)N[C@@H](CC(N)=O)C(=O)N[C@H]2C(=O)N[C@H]3C(=O)N[C@H](C(=O)N[C@H](C(=O)O)c4cc(O)cc(O)c4-c4cc3ccc4O)[C@H](O)c3ccc(c(Cl)c3)Oc3cc2cc(c3O[C@@H]2O[C@H](CO)[C@@H](O)[C@H](O)[C@H]2O[C@H]2C[C@](C)(N)[C@H](O)[C@H](C)O2)Oc2ccc(cc2Cl)[C@H]1O,broth microdilution,MRSA NCTC 12493,,,MBC,1 µM
CC[C@H]1OC(=O)[C@H](C)[C@@H](O[C@H]2C[C@@](C)(OC)[C@@H](O)[C@H](C)O2)[C@H](C)[C@@H](O[C@@H]2O[C@H](C)C[C@H](N(C)C)[C@H]2O)[C@](C)(O)C[C@@H](C)/C(=N\OCOCCOC)[C@H](C)[C@@H](O)[C@]1(C)O,,,,,MIC50,4 µg/mL
OC[C@H]1O[C@@H](Oc2cc3c(O)cc(O)cc3[o+]c2-c2ccc(O)cc2)[C@H](O)[C@@H](O)[C@@H]1O,bacterial growth,ATCC 29213,24 h,,IC50,46.5 µM
O=C(O)c1ccc(-n2cc(CNc3cc(Br)cc(C(F)(F)F)c3)c(-c3ccc(F)c(F)c3)n2)cc1,,ATCC 25923,"24 h, preformed biofilm",,biofilm MIC,2 × planktonic MIC
Cc1ccc(C[C@H](NC(=O)[C@@H](Cc2ccccc2)NC(=O)[C@@H](Cc2c[nH]c3ccccc23)NC(=O)[C@@H](N)CCCN)C(=O)N[C@H](Cc2ccccc2)C(=O)N[C@@H](Cc2ccc(N)cc2)C(N)=O)cc1,,"ATCC 33591, methicillin-resistant",,,IC50,> 20 µg/mL
O=C1/C(=C/c2ccc3ccccc3c2O)NC(=S)N1c1ccccc1,,ATCC 6538,concentration not given,,inhibition zone diameter,21 ± 0.18 mm
C=CC[C@@H]1c2ccc(OC)c(OC)c2CN2CCc3cc4c(cc3[C@H]12)OCO4,,"P2rx7+/+ mice, skin wound infection","dose not given, day 1",baseline: day 0,relative wound size,0.79 and 0.95 and 1.03 and 0.93
O=C(O)c1ccc(-n2cc(CNc3ccc(Cl)c(C(F)(F)F)c3)c(-c3cccc(F)c3)n2)cc1,,ATCC 25923,"biofilm, Calgary device",,MBEC,2 × MIC
CN[C@H](CC(C)C)C(=O)N[C@H]1C(=O)N[C@@H](CC(N)=O)C(=O)N[C@H]2C(=O)N[C@H]3C(=O)N[C@H](C(=O)N[C@H](C(=O)O)c4cc(O)cc(O)c4-c4cc3ccc4O)[C@H](O)c3ccc(c(Cl)c3)Oc3cc2cc(c3O[C@@H]2O[C@H](CO)[C@@H](O)[C@H](O)[C@H]2O[C@H]2C[C@](C)(N)[C@H](O)[C@H](C)O2)Oc2ccc(cc2Cl)[C@H]1O,broth microdilution,methicillin-susceptible isolates,,,MIC50,1 µg/mL
CC[C@H]1OC(=O)[C@H](C)[C@@H](O[C@H]2C[C@@](C)(OC)[C@@H](O)[C@H](C)O2)[C@H](C)[C@@H](O[C@@H]2O[C@H](C)C[C@H](N(C)C)[C@H]2O)[C@](C)(O)C[C@@H](C)C(=O)[C@H](C)[C@@H](O)[C@]1(C)O,,CGMCC 1.9,"concentration not given, 18 h, 37 °C",,inhibition zone diameter,20.5 mm
C[C@H]1O[C@H](OC[C@H]2O[C@@H](Oc3c(-c4ccc(O)cc4)oc4cc(O)cc(O)c4c3=O)[C@H](O)[C@@H](O)[C@@H]2O)[C@@H](O)[C@@H](O)[C@@H]1O,bacterial growth,ATCC 29213,24 h,,IC50,> 100 µM
CN[C@H](CC(C)C)C(=O)N[C@H]1C(=O)N[C@@H](CC(N)=O)C(=O)N[C@H]2C(=O)N[C@H]3C(=O)N[C@H](C(=O)N[C@H](C(=O)O)c4cc(O)cc(O)c4-c4cc3ccc4O)[C@H](O)c3ccc(c(Cl)c3)Oc3cc2cc(c3O[C@@H]2O[C@H](CO)[C@@H](O)[C@H](O)[C@H]2O[C@H]2C[C@](C)(N)[C@H](O)[C@H](C)O2)Oc2ccc(cc2Cl)[C@H]1O,time-kill,MRSA GU-1,1 µg/mL,,time to complete killing,8 h
CCCCCCCCCCCC(=O)N[C@H](CO)C(=O)N[C@@H]1C(=O)N[C@H](CCN)C(=O)N[C@@H](CC(=O)O)C(=O)NCC(=O)N[C@H](CC(N)=O)C(=O)N[C@H](CC(=O)O)C(=O)NCC(=O)N[C@@H](Cc2ccc(O)cc2)C(=O)N[C@@H](C(C)C)C(=O)N[C@@H](CCN)C(=O)N[C@@H](Cc2ccccc2)C(=O)O[C@@H]1C,,USA300,"concentration not given, compound to lipid molar ratios 0 and 5, with: undecaprenyl pyrophosphate",,antibacterial activity,decreased
CN[C@H](CC(C)C)C(=O)N[C@H]1C(=O)N[C@@H](CC(N)=O)C(=O)N[C@H]2C(=O)N[C@H]3C(=O)N[C@H](C(=O)N[C@H](C(=O)O)c4cc(O)cc(O)c4-c4cc3ccc4O)[C@H](O)c3ccc(c(Cl)c3)Oc3cc2cc(c3O[C@@H]2O[C@H](CO)[C@@H](O)[C@H](O)[C@H]2O[C@H]2C[C@](C)(N)[C@H](O)[C@H](C)O2)Oc2ccc(cc2Cl)[C@H]1O,,"USA300 LAC, female ICR mice, peritonitis, heart",,,bacterial load,4.21 log CFU and 5.31 log CFU and 4.9 log CFU and 4.46 log CFU and 4.05 log CFU and 5.46 log CFU
CCCCCCCCCC(=O)N[C@@H](Cc1c[nH]c2ccccc12)C(=O)N[C@H](CC(N)=O)C(=O)N[C@@H](CC(=O)O)C(=O)N[C@@H]1C(=O)NCC(=O)N[C@@H](CCCN)C(=O)N[C@@H](CC(=O)O)C(=O)N[C@H](C)C(=O)N[C@@H](CC(=O)O)C(=O)NCC(=O)N[C@H](CO)C(=O)N[C@@H]([C@H](C)CC(=O)O)C(=O)N[C@@H](CC(=O)c2ccccc2N)C(=O)O[C@@H]1C,,MRSA ATCC BAA-1556,4 x MIC,,time to complete killing,3 h
CN[C@H](CC(C)C)C(=O)N[C@H]1C(=O)N[C@@H](CC(N)=O)C(=O)N[C@H]2C(=O)N[C@H]3C(=O)N[C@H](C(=O)N[C@H](C(=O)O)c4cc(O)cc(O)c4-c4cc3ccc4O)[C@H](O)c3ccc(c(Cl)c3)Oc3cc2cc(c3O[C@@H]2O[C@H](CO)[C@@H](O)[C@H](O)[C@H]2O[C@H]2C[C@](C)(N)[C@H](O)[C@H](C)O2)Oc2ccc(cc2Cl)[C@H]1O,,ATCC 29213,1 strain,,MIC50,1 µg/mL
NCC[C@H](O)C(=O)N[C@@H]1C[C@H](N)[C@@H](O[C@H]2O[C@H](CN)[C@@H](O)[C@H](O)[C@H]2O)[C@H](O)[C@H]1O[C@H]1O[C@H](CO)[C@@H](O)[C@H](N)[C@H]1O,,CGMCC 1.9,"concentration not given, 18 h, 37 °C",,inhibition zone diameter,18 mm
COc1cc(-c2oc3cc(O)cc(O)c3c(=O)c2O[C@@H]2O[C@H](CO[C@@H]3O[C@@H](C)[C@H](O)[C@@H](O)[C@H]3O)[C@@H](O)[C@H](O)[C@H]2O)ccc1O,bacterial growth,ATCC 29213,24 h,,IC50,> 100 µM
CN[C@H](CC(C)C)C(=O)N[C@H]1C(=O)N[C@@H](CC(N)=O)C(=O)N[C@H]2C(=O)N[C@H]3C(=O)N[C@H](C(=O)N[C@H](C(=O)O)c4cc(O)cc(O)c4-c4cc3ccc4O)[C@H](O)c3ccc(c(Cl)c3)Oc3cc2cc(c3O[C@@H]2O[C@H](CO)[C@@H](O)[C@H](O)[C@H]2O[C@H]2C[C@](C)(N)[C@H](O)[C@H](C)O2)Oc2ccc(cc2Cl)[C@H]1O,,"MRSA ATCC 33591, mouse, pneumonia model, lung homogenate",5 mg/kg,,lung bacterial load,4.66 CFU/mL
O=c1c(O[C@@H]2O[C@H](CO)[C@@H](O)[C@H](O)[C@H]2O)c(-c2ccc(O)c(O)c2)oc2cc(O)cc(O)c12,bacterial growth,ATCC 29213,24 h,,IC50,> 100 µM
O=c1c2cc(Cl)ccc2[nH]c(=S)n1Cc1cccnc1,,,,,MIC90,> 100 µM
O=c1c(O)c(-c2cc(O)c(O)c(O)c2)oc2cc(O)cc(O)c12,bacterial growth,ATCC 29213,24 h,,IC50,> 100 µM
CCCCCCCCCC(=O)N[C@@H](Cc1c[nH]c2ccccc12)C(=O)N[C@H](CC(N)=O)C(=O)N[C@@H](CC(=O)O)C(=O)N[C@@H]1C(=O)NCC(=O)N[C@@H](CCCN)C(=O)N[C@@H](CC(=O)O)C(=O)N[C@H](C)C(=O)N[C@@H](CC(=O)O)C(=O)NCC(=O)N[C@H](CO)C(=O)N[C@@H]([C@H](C)CC(=O)O)C(=O)N[C@@H](CC(=O)c2ccccc2N)C(=O)O[C@@H]1C,Calgary Biofilm Device,MRSA 1707 biofilm,24 h,,MBEC,> 2000 µM
O=C(NCc1ccccc1)C(O)CO (stereo not shown),crystal violet staining,,"500 µg/mL, 24 h",baseline: untreated,residual biofilm,11 ± 2%
CC(=O)NC[C@H]1CN(c2ccc(N3CCOCC3)c(F)c2)C(=O)O1,Calgary Biofilm Device,MRSA 1707,24 h,,MBC,31.3 µM
O=C(/C=C/c1ccc(O)c(O)c1)O[C@@H]1C[C@](O)(C(=O)O)C[C@@H](O)[C@H]1O,bacterial growth,ATCC 29213,24 h,,IC50,> 100 µM

# Some of these lines once more:
SMILES,test,test system,setting,how to read,measurement,value
CN[C@H](CC(C)C)C(=O)N[C@H]1C(=O)N[C@@H](CC(N)=O)C(=O)N[C@H]2C(=O)N[C@H]3C(=O)N[C@H](C(=O)N[C@H](C(=O)O)c4cc(O)cc(O)c4-c4cc3ccc4O)[C@H](O)c3ccc(c(Cl)c3)Oc3cc2cc(c3O[C@@H]2O[C@H](CO)[C@@H](O)[C@H](O)[C@H]2O[C@H]2C[C@](C)(N)[C@H](O)[C@H](C)O2)Oc2ccc(cc2Cl)[C@H]1O,broth microdilution,MRSA NCTC 12493,,,MBC,1 µM
CN[C@H](CC(C)C)C(=O)N[C@H]1C(=O)N[C@@H](CC(N)=O)C(=O)N[C@H]2C(=O)N[C@H]3C(=O)N[C@H](C(=O)N[C@H](C(=O)O)c4cc(O)cc(O)c4-c4cc3ccc4O)[C@H](O)c3ccc(c(Cl)c3)Oc3cc2cc(c3O[C@@H]2O[C@H](CO)[C@@H](O)[C@H](O)[C@H]2O[C@H]2C[C@](C)(N)[C@H](O)[C@H](C)O2)Oc2ccc(cc2Cl)[C@H]1O,broth microdilution,methicillin-susceptible isolates,,,MIC50,1 µg/mL
CC[C@H]1OC(=O)[C@H](C)[C@@H](O[C@H]2C[C@@](C)(OC)[C@@H](O)[C@H](C)O2)[C@H](C)[C@@H](O[C@@H]2O[C@H](C)C[C@H](N(C)C)[C@H]2O)[C@](C)(O)C[C@@H](C)/C(=N\OCOCCOC)[C@H](C)[C@@H](O)[C@]1(C)O,,,,,MIC50,4 µg/mL
